Assay results pooled from the literature.
Numbers after ± are the reported error.
CYP2D6: Cytochrome P450 2D6 (CYP2D6, Homo sapiens, UniProt P10635)

Protein sequences, listed by entry. Tags and fused reporters are not part of them.
UniProt P10635, whole entry: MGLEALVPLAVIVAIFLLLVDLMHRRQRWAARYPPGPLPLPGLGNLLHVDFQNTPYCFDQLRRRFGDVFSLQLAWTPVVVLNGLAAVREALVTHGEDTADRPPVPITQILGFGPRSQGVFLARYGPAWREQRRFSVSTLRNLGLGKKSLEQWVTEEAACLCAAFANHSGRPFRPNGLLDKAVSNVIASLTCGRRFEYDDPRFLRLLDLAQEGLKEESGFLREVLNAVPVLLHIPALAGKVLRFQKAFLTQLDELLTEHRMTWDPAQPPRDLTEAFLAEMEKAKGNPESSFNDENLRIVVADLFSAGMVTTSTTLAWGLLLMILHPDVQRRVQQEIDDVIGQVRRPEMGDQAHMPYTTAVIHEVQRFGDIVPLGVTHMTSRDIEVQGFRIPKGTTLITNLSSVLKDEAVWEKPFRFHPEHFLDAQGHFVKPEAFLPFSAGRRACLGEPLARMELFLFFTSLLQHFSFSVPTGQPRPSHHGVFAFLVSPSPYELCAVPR

| Structure (SMILES) | target or system | assay | system | conditions | how to read | endpoint | result |
| --- | --- | --- | --- | --- | --- | --- | --- |
| CC(C)n1nnc(-c2cc(O)cc(Nc3ncnn4ccc(CN5CCC(N)CC5)c34)c2)n1 | – | – | mouse, plasma | subcutaneous, 60 mg/kg, 90 min | – | total plasma concentration | 11.9 ± 1.2 µM |
| COc1ccc(NC(=O)CN2CCCN(S(=O)(=O)c3cccs3)CC2)c(OC)c1 | CYP2D6 | enzyme activity, inhibitor | – | – | – | IC50 | 10.1 µM |
| CCOc1ccc(S(=O)(=O)NC(=O)Cc2ccc(I)cc2)cc1Br | MDCKII-MDR1 | – | – | – | baseline: B-A over A-B | efflux ratio | 1.35 |
| Cc1c(-c2ccccc2)nn2c(=O)cc(-c3cccc(-c4nnn[nH]4)c3)[nH]c12 | – | – | mouse | 10 mg/kg, 24 h | – | plasma level | not detected |
| CCn1nccc1N=CC1=Cc2cc3c(cc2[C@@H](c2cc(OC)c(OC)c(OC)c2)[C@@H]1C(=O)OC)OCO3 | HepG2 | Alamar Blue | – | 48 h | – | CC50 | > 100 µM |
| Cc1n[nH]c(C)c1CCOC(=O)c1cccc2c1oc(=O)n2C | – | – | BALB/c mouse, plasma | intravenous, 2 mg/kg | – | Cmax | 3280 ng/mL |
| CCOc1ccccc1Nc1nnc(SCC(=O)Nc2cc(F)ccc2F)s1 | Jurkat | MTS | – | up to 300 µM, 24 h | – | viability | > 85% |
| COc1cc([C@@H]2c3cc4c(cc3[C@@H](OC(C)C)[C@H]3COC(=O)[C@H]23)OCO4)cc(OC)c1OC | HepG2 | Alamar Blue | – | 48 h | – | CC50 | > 100 µM |
| COc1ccc(CC(=O)OCc2ccc(-n3cccn3)cc2)cc1F | – | – | BALB/c mouse, plasma | intravenous, 2 mg/kg | – | volume of distribution | 0.45 L/kg |
| Cc1cc(SCc2sc(-c3ccc(Cl)c(Cl)c3)nc2C)ccc1OCC(=O)O | HEK293T | – | – | 18 h | – | CC50 | > 50 µM |
| COC(=O)[C@@H]1C(c2nc3cc(Cl)ccc3o2)=Cc2cc3c(cc2[C@H]1c1cc(OC)c(OC)c(OC)c1)OCO3 | HepG2 | Alamar Blue | – | 48 h | – | CC50 | 46.8 ± 1.3 µM |
| Cc1cc(SCc2sc(-c3ccc(C(F)(F)F)cc3C(F)(F)F)nc2C)ccc1OCC(=O)O | HEK293T | – | – | 18 h | – | CC50 | > 50 µM |
| CCCSc1nc(N[C@@H]2C[C@H]2c2ccc(F)c(F)c2)c2nnn([C@@H]3C[C@H](O)[C@@H](O)[C@H]3O)c2n1 | – | – | rat, female, plasma | oral, 60 mg/kg/day ticagrelor, week 52 | – | AUC | 39.4 µM·h |
| Cc1cc(SCc2sc(-c3ccc4cn[nH]c4c3)nc2C)ccc1OCC(=O)O | HEK293T | – | – | 18 h | – | CC50 | > 100 µM |
| COc1cc([C@@H]2c3cc4c(cc3C=C(C=O)[C@H]2C(=O)OCCCBr)OCO4)cc(OC)c1OC | mouse splenocytes uninfected | Alamar Blue | – | 48 h | – | CC50 | 98.2 ± 10.2 µM |
| Cc1cc(OCc2sc(-c3ccc(C(F)(F)F)c(F)c3)nc2C)ccc1OCC(=O)O | HEK293T | – | – | 18 h | – | CC50 | > 100 µM |
| CCCCNCC1=Cc2cc3c(cc2[C@@H](c2cc(OC)c(OC)c(OC)c2)[C@@H]1C(=O)OC)OCO3 | mouse splenocytes uninfected | Alamar Blue | – | 48 h | – | CC50 | > 100 µM |
| Cc1cc(NC(=O)c2cccc(NC(=O)C3=CC(C)(C)CCC3=O)c2)ccc1Nc1nccc(-c2cccnc2)n1 | – | – | rat plasma | 1 µM, 30 min | – | compound remaining | 102% |
| Cc1cc(SCc2sc(-c3cncc4ccccc34)nc2C)ccc1OCC(=O)O | HEK293T | – | – | 18 h | – | CC50 | not toxic |
| Nc1ncc(-c2ccc3ncnc(N4CCc5cc(F)c(Cl)cc54)c3c2)cn1 | – | – | CD1 mouse, plasma | oral, 100 mg/kg | – | Tmax | 8 h |
| Cc1cc(SCc2sc(-c3ccc(Cl)cc3C(F)(F)F)nc2C)ccc1OCC(=O)O | HEK293T | – | – | 18 h | – | CC50 | > 50 µM |
| COc1cc([C@@H]2c3cc4c(cc3[C@@H](C=C(C)C)[C@H]3COC(=O)[C@H]23)OCO4)cc(OC)c1OC | HepG2 | Alamar Blue | – | 48 h | – | CC50 | > 100 µM |
| CC(C)c1ccc(NC(=O)C2CC3CCC2C3)cc1 (stereo not drawn) | CYP2D6 | enzyme activity, inhibitor | – | – | – | IC50 | > 30 µM |
| Cc1cc(SCc2sc(-c3ccc(OC(F)(F)F)c(Cl)c3)nc2C)ccc1OCC(=O)O | HEK293T | – | – | 18 h | – | CC50 | > 50 µM |
| COC(=O)[C@@H]1C(C=Nc2cc(C)ccc2O)=Cc2cc3c(cc2[C@H]1c1cc(OC)c(OC)c(OC)c1)OCO3 | mouse splenocytes uninfected | Alamar Blue | – | 48 h | – | CC50 | 38.7 ± 1.5 µM |
| Cc1cc(SCc2sc(-c3cccc4[nH]ccc34)nc2C)ccc1OCC(=O)O | HEK293T | – | – | 18 h | – | CC50 | not toxic |
| CCOC(=O)COC(=O)[C@@H]1C(C=O)=Cc2cc3c(cc2[C@H]1c1cc(OC)c(OC)c(OC)c1)OCO3 | HepG2 | Alamar Blue | – | 48 h | – | CC50 | 10.4 ± 0.8 µM |

For quick reference, copied from above:
| Structure (SMILES) | target or system | assay | system | conditions | how to read | endpoint | result |
| --- | --- | --- | --- | --- | --- | --- | --- |
| Cc1cc(SCc2sc(-c3ccc(Cl)cc3C(F)(F)F)nc2C)ccc1OCC(=O)O | HEK293T | – | – | 18 h | – | CC50 | > 50 µM |
| COC(=O)[C@@H]1C(C=Nc2cc(C)ccc2O)=Cc2cc3c(cc2[C@H]1c1cc(OC)c(OC)c(OC)c1)OCO3 | mouse splenocytes uninfected | Alamar Blue | – | 48 h | – | CC50 | 38.7 ± 1.5 µM |
| Cc1cc(SCc2sc(-c3ccc(C(F)(F)F)cc3C(F)(F)F)nc2C)ccc1OCC(=O)O | HEK293T | – | – | 18 h | – | CC50 | > 50 µM |
| COc1cc([C@@H]2c3cc4c(cc3C=C(C=O)[C@H]2C(=O)OCCCBr)OCO4)cc(OC)c1OC | mouse splenocytes uninfected | Alamar Blue | – | 48 h | – | CC50 | 98.2 ± 10.2 µM |
